# Measured values collected from several papers.
# Parts stem from different laboratories: compare values within a part only.

# Sample 1
# Target: Centromere-binding protein 1, full length, His-tagged (CBF1, Saccharomyces cerevisiae, UniProt P17106, residues 1-351)
# UniProt P17106, sequence (whole entry, looked up): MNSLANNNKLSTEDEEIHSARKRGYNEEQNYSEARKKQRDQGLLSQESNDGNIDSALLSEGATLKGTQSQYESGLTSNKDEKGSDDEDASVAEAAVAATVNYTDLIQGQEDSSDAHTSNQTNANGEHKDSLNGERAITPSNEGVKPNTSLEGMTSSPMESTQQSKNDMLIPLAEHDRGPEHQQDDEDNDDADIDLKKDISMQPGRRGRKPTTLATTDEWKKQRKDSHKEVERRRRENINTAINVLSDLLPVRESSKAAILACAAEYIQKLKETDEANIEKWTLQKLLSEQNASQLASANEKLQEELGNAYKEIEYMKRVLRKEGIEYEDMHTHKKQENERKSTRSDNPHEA
# Technique: competition protein-binding microarray
# Molecule type: double-stranded DNA, one strand shown
# Matrix: in vitro
# Concentration: 2 µM
# Setting: whole 60-bp probe, lowest competitor level
# Added: Pho4 competitor, 0.05 µM
# Direction: higher = stronger binding
Strand,fluorescence intensity [a.u.]
GTCTTGTCTCATTGCTCCGTGGGTGTCCCCACTTCAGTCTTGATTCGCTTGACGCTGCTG,87.9
AGTCCGGTGTGTAGGTGCATGACAGATTGGTCCGGCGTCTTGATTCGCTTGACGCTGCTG,60.4
TCTCCTAGGGGCAGTCTCGTGCTAATTAGCAGCTTTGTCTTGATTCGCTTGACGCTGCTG,225
CGGGGTTAAGTTTGTCACCGGACTTGCTTGCAGCAGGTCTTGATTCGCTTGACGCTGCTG,92.2
TGAAGGTTCTTTCTGCTCGTGAAGAGTCGCTAGACGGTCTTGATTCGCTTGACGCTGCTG,64.2
AAAGCGGTAATTTGGTATGTGGGTGCAGATATCTATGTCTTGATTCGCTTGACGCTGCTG,71.4
CCCTTCCAAAACTATCACATGTAACCATGATGAACCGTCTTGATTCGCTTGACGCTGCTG,433
CGGGGTTAAGTTTGGCGTGTGGGTGGCTTGCAGCAGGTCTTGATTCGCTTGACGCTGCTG,73.4
CGTCCTAGCGATTGAATTGTGGGTGCCATGAGGAAGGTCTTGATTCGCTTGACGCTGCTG,86.7
CGTCCTAGTGATTGCTTCGTGGGTGCCATGAGGAAGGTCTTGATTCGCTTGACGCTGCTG,91.5
TTCACTAGGCAAATCCACGTGCTTTAGCATTTCCATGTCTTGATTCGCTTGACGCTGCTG,1030
CGGGGTTAAGTTTTTCACGTGCTGTGCTTGCAGCAGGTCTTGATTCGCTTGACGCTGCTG,895
TTAAGTGGGCTTACCCACGCTTTCGGTGCCTATGGTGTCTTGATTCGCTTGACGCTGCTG,49.2
CTTTCCCGATCTTTTCACGTGACGTTAGCACATTTGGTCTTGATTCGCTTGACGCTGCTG,3880
CTTTTCATTAGGCTTCCTAATTATACCCATCTATGCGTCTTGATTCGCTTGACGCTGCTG,64.9
TTCTTGTAGTCAACGTACATGATGTTGTCGTCCCAAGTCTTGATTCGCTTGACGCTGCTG,72
CAACCGGCCTAGCATCACATGCTGATACCACTTGTAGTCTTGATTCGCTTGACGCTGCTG,288
TGCATTGTTAAAAAGCACGTCTATGTGGTCTTCCAGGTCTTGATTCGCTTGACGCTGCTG,75.5
ATACCAGAGTATAGTGACGTGATGGGGTTGCATTAGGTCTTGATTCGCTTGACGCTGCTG,87.4
CCGATGGCACAACACCATGTGATGGGTTGGGAGTGGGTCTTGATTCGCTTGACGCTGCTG,392
CTTTCCCGATCTTGGTTCGTGGGTGTAGCACATTTGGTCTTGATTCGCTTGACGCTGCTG,63.3
CATACCCAACCTTGTCACGAAACTTAAGATATTTGTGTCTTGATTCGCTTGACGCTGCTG,95.4
TTATAATAAATAGTACACGTTGCAGACATATTTGGAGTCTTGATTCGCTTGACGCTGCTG,152
CTTATTCGTATGAAGCATGTGACGCTGGTATAAGACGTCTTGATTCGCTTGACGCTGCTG,995
GATGCTAAGAAGATATCCGTGATGGGCATCCGAGCTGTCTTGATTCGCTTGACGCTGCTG,70.1

# Sample 2
# Target: Interferon regulatory factor 7, full length, phosphomimetic (IRF7, Homo sapiens, UniProt Q92985, residues 1-503, S471D/S472D/S475D/S476D/S477D/S483D/S484D/S487D)
# Technique: protein-binding microarray
# Molecule type: double-stranded DNA, one strand shown
# Matrix: in vitro
# Concentration: 2200 nM top
# Setting: 60-bp whole probe
# Added: salmon DNA 0.4 mg/ml
# Relative to: random background probes
# Direction: higher = stronger binding
# Shared flanks, not repeated: GCCTAGCAC … GTCTTGATTCGCTTGACGCTGCTG
# Construct (chain): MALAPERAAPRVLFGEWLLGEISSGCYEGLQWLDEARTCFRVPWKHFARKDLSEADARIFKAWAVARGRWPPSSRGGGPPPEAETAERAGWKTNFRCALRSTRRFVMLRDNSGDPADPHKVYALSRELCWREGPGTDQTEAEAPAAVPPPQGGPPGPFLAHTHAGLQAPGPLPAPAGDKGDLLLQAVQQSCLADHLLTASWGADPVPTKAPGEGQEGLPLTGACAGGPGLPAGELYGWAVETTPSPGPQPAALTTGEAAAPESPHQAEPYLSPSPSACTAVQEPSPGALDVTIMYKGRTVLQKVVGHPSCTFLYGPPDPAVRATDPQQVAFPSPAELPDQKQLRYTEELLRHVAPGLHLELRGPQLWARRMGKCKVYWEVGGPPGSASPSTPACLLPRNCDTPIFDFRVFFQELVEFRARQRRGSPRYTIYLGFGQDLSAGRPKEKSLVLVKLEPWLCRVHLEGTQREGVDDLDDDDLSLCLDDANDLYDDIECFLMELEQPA
Strand,fitted relative affinity [z-score]
CAAGTTTCTCCTTTGTAAATGTGCTAG,2.86
ATAGGACTGGACTATCGGTTAGTGCTA,-0.0368
GACGGTTTCCTTTTTCTGACGTGCTAG,4.57
TTTTCAGCATCGCTCAGCACGTGCTAG,0.653
GACGATATCGGGACTGTAGACGTGCTA,0.0877
GACGGATTGCTTCTCCTGACGTGCTAG,0.834
TTAGGTATCCTTCTCCTTAAGTGCTAG,1.55
TCAAGTTTTCCTCTGTCACTGTGCTAG,1.87
GACGGTATCCTTTTCCTGGCGTGCTAG,1.09
TCACACTTCCTTCTGCCACTGTGCTAG,2.52
GAAATTTTTTTTCTAACTAAGTGCTAG,0.107
GGCGGTATCGGACTGGGGACGTGCTAG,-1.17
TATGTTGTCCAGGCTGGTCTCGTGCTA,0.667
TCACTTTCCACTTGTCTTTTCGTGCTA,9.98
GACGGTTTCGGTTTTGGGACGTGCTAG,11
CTGGATCTCAGACTGTGTCCGTGCTAG,0.787
CCCATTCCAGGGTTTTATGGAGTGCTA,-0.0658
TAAGGTATCGACTATCGGTTAGTGCTA,0.167
GAGGGACTGGGTATCGGGACGTGCTAG,-0.573
TTAGATTCCGGTTTCGGTTAGTGCTAG,8.27
GACGGTTTCCTTCCCCTGACGTGCTAG,2.72
CTAGGACTGGACTTTCGGTTAGTGCTA,4.7
GACGGTTCCGGATTCGGGACGTGCTAG,2.01
TTAGATTTCAGACTCGATTAGTGCTAG,0.262
TCATATTTGCAACATCCCACTGTGCTA,1.58

# Sample 3
# Target: Histone acetyltransferase KAT6A, both winged helices, GST fusion (KAT6A, Homo sapiens, UniProt Q92794, residues 1-181)
# Technique: protein binding microarray
# Molecule type: double-stranded DNA, one strand shown
# Matrix: in vitro
# Concentration: not given
# Setting: 8-mer, flanks averaged, mean of 2 arrays, mostly near background
# Relative to: not given
# Direction: higher = stronger binding
# Construct (chain): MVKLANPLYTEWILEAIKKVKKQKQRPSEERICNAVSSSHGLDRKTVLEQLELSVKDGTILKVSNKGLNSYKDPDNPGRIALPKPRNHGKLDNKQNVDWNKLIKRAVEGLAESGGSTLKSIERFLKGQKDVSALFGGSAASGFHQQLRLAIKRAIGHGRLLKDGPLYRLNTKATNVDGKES
Strand,E-score
GCTGCCCA,-0.0275
CCTCATGC,-0.155
CTACCACC,-0.0999
AAACGCAT,0.134
TCACCACA,-0.135
AGCCCTAC,-0.0752
CTATGCGC,0.262
GTGTCAAA,0.0242
CGTAAGGA,-0.0927
TATGGTCA,-0.22
CACTTATG,-0.0872
ATACATAA,-0.121
AATATGGC,-0.00745
GCGCTGGA,0.257
TGAGCAAA,-0.112
AAGACCGT,0.135
AAGTGGCC,-0.127
ACGACCCG,0.201
CCAAAGAA,-0.162
ATAAGCTA,-0.0974
CACAAAAA,-0.0986
CTAGTTTA,0.0629
GTACCCTA,-0.227
GTACGCGA,0.146
CCCTGCTC,-0.252

# Sample 4
# Target: Fragile X messenger ribonucleoprotein 1, C-terminal low-complexity region (Fmr1, Mus musculus, UniProt P35922)
# Technique: RNA Bind-n-Seq
# Molecule type: RNA
# Matrix: in vitro
# Concentration: 200 nM
# Setting: whole 134-nt RNA, ends assumed
# Added: 150 mM LiCl
# Relative to: input library
# Direction: higher = stronger binding
# Library: 7-deaza-guanosine replaces G
Strand,log2 enrichment
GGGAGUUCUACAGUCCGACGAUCUGUUGAAAUGGGACAGUUGGCAGCGGCUCUGAUGAGCCCGAGAAGAGGCCUGCCCUUGGGUGCGGAGUCUCCCUCCGCACGAUGCUCCCAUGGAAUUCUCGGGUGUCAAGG,-1.84
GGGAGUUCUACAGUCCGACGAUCCAAGUCCUGUGCUACACAUCGUAUGUACCGAAUCGGUUUGGUUUGGUUUUUUUGGAAAGUAUUAUGUUACGCCGUUCGGAUCUGCACUUCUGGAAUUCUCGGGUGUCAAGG,-1.71
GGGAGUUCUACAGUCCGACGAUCAAGUCCUGUGCUACACAUCGUAUGUACCGAAUCGGGGUUUUUGGGGAGGGGAGGGGAAAGUAUUAUGUUACGCCGUUCGGAUCUGCACUUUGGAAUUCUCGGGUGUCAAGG,0.38
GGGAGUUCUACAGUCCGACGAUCAGUCCUGUGCUACACAUCGUAUGUACCGAAUCGGGAAAGGGUUUUUUUGGGAAAGGGAAAGUAUUAUGUUACGCCGUUCGGAUCUGCACUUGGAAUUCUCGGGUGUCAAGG,-1.87
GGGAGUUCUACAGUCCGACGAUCCCUGUGCUACACAUCGUAUGUACCGAAUCGGGGAAAAAGGGGUUUUUUUGGGGUUUGGGGAAAGUAUUAUGUUACGCCGUUCGGAUCUGCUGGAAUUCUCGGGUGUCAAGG,-1.95
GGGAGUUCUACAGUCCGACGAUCCAAGUCCUGUGCUACACAUCGUAUGUACCGAAUCGGAAAGGAAAAAGGUUUUUGGAAAGUAUUAUGUUACGCCGUUCGGAUCUGCACUUCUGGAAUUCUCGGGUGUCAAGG,-1.9
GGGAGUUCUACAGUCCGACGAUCCACAGACAACACGCACCCACACAGACACAGAGGGAAGGGGUUGGGAUGGGGUCAGGGUGCACAGCAGGGCGGGGUAGGACCCCAGCCCCUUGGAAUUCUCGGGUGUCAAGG,-0.261
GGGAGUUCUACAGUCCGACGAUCCUCAAGUCCUGUGCUACACAUCGUAUGUACCGAAUCGGUUUUUGGUGGUUUGGAAAGUAUUAUGUUACGCCGUUCGGAUCUGCACUUCCAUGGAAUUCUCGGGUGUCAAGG,-0.73
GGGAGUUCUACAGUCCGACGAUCCCUGUGCUACACAUCGUAUGUACCGAAUCAAACCCCCCCAAAUUUUUAAACCCCCCCAAAAAAGUAUUAUGUUACGCCGUUCGGAUCUGCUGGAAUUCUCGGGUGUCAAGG,1.82
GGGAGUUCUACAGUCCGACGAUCUGGCCCUGGUGGCAUGCGCGGAGGAAGAGGUGGCCUCAUGGAUCGUGGUGGUCCCGGUGGAAUGUUCAGAGGUGGCCGUGGUGGAGACAGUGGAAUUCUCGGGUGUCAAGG,-0.262
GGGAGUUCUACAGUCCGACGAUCGCAGUAAGUAAAAACAAAUGGAAAUGCUUCGGAUAGUGGCAGGGGUGGGGGUUGCUAAGGAAAGGGUGGGAUGGGAGUGGGUAAAGAGUUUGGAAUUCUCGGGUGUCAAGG,1.57

# Repeated from above (sample 2):
Strand,fitted relative affinity [z-score]
TCAAGTTTTCCTCTGTCACTGTGCTAG,1.87
TCACTTTCCACTTGTCTTTTCGTGCTA,9.98
CTGGATCTCAGACTGTGTCCGTGCTAG,0.787
GACGGTATCCTTTTCCTGGCGTGCTAG,1.09
TTAGGTATCCTTCTCCTTAAGTGCTAG,1.55
CTAGGACTGGACTTTCGGTTAGTGCTA,4.7
TCATATTTGCAACATCCCACTGTGCTA,1.58
ATAGGACTGGACTATCGGTTAGTGCTA,-0.0368
TTAGATTTCAGACTCGATTAGTGCTAG,0.262
GAAATTTTTTTTCTAACTAAGTGCTAG,0.107
TCACACTTCCTTCTGCCACTGTGCTAG,2.52
GACGGTTTCCTTTTTCTGACGTGCTAG,4.57
GACGGTTTCCTTCCCCTGACGTGCTAG,2.72
GACGGTTCCGGATTCGGGACGTGCTAG,2.01
